# Published values of several laboratories.
# Each numbered part is a random draw from the data of one study; scales do not carry over between parts. Substitutions count along the parent as printed.

# Series 1 — method: protein-binding microarray; form: double-stranded DNA, one strand shown; matrix: in vitro; concentration: 2200 nM top; notes: 60-bp whole probe; with: salmon DNA 0.4 mg/ml; reference: random background probes; reading: higher = stronger binding; shared flanks, not repeated: GCCTAGCAC … GTCTTGATTCGCTTGACGCTGCTG
# Target: Interferon regulatory factor 7, full length, phosphomimetic (IRF7, Homo sapiens, UniProt Q92985, residues 1-503, S471D/S472D/S475D/S476D/S477D/S483D/S484D/S487D)
# Chain of UniProt Q92985 (whole entry, unmodified, looked up): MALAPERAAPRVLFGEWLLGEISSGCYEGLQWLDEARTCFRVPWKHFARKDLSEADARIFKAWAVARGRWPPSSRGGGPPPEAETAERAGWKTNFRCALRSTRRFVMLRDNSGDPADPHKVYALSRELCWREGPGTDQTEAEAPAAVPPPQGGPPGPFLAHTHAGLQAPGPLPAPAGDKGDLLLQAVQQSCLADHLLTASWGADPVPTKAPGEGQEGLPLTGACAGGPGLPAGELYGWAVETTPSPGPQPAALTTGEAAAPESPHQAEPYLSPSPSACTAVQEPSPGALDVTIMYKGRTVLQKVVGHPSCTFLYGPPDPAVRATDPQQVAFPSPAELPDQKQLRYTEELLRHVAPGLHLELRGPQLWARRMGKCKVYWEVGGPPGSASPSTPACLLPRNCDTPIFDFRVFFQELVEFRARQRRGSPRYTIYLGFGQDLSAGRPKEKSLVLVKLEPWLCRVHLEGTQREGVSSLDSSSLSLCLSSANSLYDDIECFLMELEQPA
Oligonucleotide,fitted relative affinity
GACGAACTCAGTATCGAGACGTGCTAG,-0.168 z-score
TCAGGTTTGAGTCTTCTACTGTGCTAG,0.731 z-score
GACGAACTGGGGACTGGGGACGTGCTA,-0.182 z-score
TTAGGTATCGACACTGGGGTAGTGCTA,-0.0421 z-score
TTAGCACTGGGGTTTCGGTTAGTGCTA,2.99 z-score
CTAGGTTTCGACACTGGGTTAGTGCTA,2.23 z-score
GTCGGTATCGGGACTGGGGACGTGCTA,-0.121 z-score
GACGGTTTCGGGTTTCCGGACGTGCTA,9.03 z-score
TTAGGACTGGGGTATCGGTAAGTGCTA,-0.544 z-score
GACGGACTCGACTATCGGGACGTGCTA,-0.433 z-score
TTAGGACTGGGACTGGTTTAGTGCTAG,-0.662 z-score
GACGAGCTCAGACTGGAGACGTGCTAG,-0.536 z-score
GAATGTGTCTTAAATAGGGCAGTGCTA,-0.365 z-score
TTAGGTTTTGGGACTGGGTTAGTGCTA,-0.0594 z-score
GACGGACTGCTTATTCTGACGTGCTAG,0.227 z-score
TTAAGCCCACTATCTAGCCCGTGCTAG,0.00774 z-score
TCACTGGTCACTCTCTGACTGTGCTAG,0.684 z-score
GACGGCCTCGGTTTCGGGACGTGCTAG,2.79 z-score
GACGATTCCAGTTTCGAGGCGTGCTAG,3.4 z-score

# Series 2 — target: CCND2, cyclin fold, Cln2 fusion (human); method: yeast growth competition, sequencing; matrix: yeast; notes: weak parent motif; reference: not given; reading: higher = stronger binding
# Starting sequence: ORC1 docking peptide (human); PRARKRLELGNLG; partner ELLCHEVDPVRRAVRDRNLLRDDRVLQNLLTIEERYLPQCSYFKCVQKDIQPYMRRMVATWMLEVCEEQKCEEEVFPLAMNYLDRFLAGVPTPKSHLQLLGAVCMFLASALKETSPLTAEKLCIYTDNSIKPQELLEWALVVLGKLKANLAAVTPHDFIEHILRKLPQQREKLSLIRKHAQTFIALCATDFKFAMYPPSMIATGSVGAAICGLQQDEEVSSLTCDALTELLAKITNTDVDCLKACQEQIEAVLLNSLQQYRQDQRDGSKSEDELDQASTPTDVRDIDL
Substitution,normalised enrichment score
PRAGKRLELGNLG [R4G],0.19
PRARCRLELGNLG [K5C],0.127
PKARKRLELGNLG [R2K],0.0774
PRARKLLELGNLG [R6L],0.404
PRARKRLQLGNLG [E8Q],0.302
PRARKRIELGNLG [L7I],0.279
PRASKRLELGNLG [R4S],0.454
PRCRKRLELGNLG [A3C],0.332
PRARARLELGNLG [K5A],0.0124
PRARKMLELGNLG [R6M],0.115
PRARKRLELGDLG [N11D],0.109
VRARKRLELGNLG [P1V],-0.0275
PHARKRLELGNLG [R2H],0.0624
PRARKREELGNLG [L7E],0.38
PRARPRLELGNLG [K5P],0.655
PRARKQLELGNLG [R6Q],0.123
PRARKRLELGNIG [L12I],0.0693
SRARKRLELGNLG [P1S],-0.214
PRARKRLHLGNLG [E8H],-0.247
PRARKRLELGSLG [N11S],0.0348
PRARKRLELCNLG [G10C],-0.00546
PRARKRCELGNLG [L7C],-0.049
PRADKRLELGNLG [R4D],0.0733
PRARKRLELGNLP [G13P],-0.000133
PRARKRLELGNTG [L12T],0.206

# Series 3 — method: competition protein-binding microarray; form: double-stranded DNA, one strand shown; matrix: in vitro; concentration: 2 µM; with: Pho4 competitor, 0.05 µM; reading: higher = stronger binding; shared flanks, not repeated: … GTCTTGATTCGCTTGACGCTGCTG
# Target: Centromere-binding protein 1, full length, His-tagged (CBF1, Saccharomyces cerevisiae, UniProt P17106, residues 1-351)
# Chain of UniProt P17106 (whole entry, looked up): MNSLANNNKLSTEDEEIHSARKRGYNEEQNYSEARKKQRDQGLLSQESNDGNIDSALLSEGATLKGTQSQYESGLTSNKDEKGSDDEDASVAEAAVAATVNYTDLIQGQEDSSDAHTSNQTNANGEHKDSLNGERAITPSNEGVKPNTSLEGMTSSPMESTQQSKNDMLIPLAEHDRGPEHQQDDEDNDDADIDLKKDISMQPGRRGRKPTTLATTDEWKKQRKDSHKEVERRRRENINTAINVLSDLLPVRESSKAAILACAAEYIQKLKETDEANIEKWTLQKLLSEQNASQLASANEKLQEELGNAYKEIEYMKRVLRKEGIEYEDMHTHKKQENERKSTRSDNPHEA
# Notes: whole 60-bp probe, lowest competitor level
Oligonucleotide,fluorescence intensity [a.u.]
ATACTACCACACTTTCATGTGATGAAAGGTGAAACT,170
TCAAGAAGGCAGAGATACGTGTGGATTTTGCAGACA,75.4
AAATGGAACGATAGGAACGTGTAACCTACCGCTTCT,72.9
AAACCCGGGCTGAAATCCGTGCAATGCATCAAATTT,68.7
CTAACGAAGGTTTGACGCGTGGGTGACAAGCCAAGT,83.3
AACAGATTCGGTGAGCTCGTGAGGTTTGAAGGCAGT,94.5
AGTTGGCGATCAAAGCACGTGATGGGTTTTCCAAAT,6860
TCCAGAAGAACCCGTCACGTTTTGGATTGGTTTTTG,503
CGTCCTAGCGATTGAGGTGTGGGTGCCATGAGGAAG,82.8
CTTTCCCGATCTTGCCGCGTGGGTGTAGCACATTTG,84.1
GAGACGCTTAAGCGACACGTGCCTGGCTTCTGCAGC,1710
TGACCGCTCCACCGGCATGCGTGTAGTCATCCCGCA,49.8
GAAGAACAAATTTTCCACATGCTTGTGCCTGCTTTA,78.1
CTTTCCCGATCTTTTCACGTGTCTTTAGCACATTTG,1040
CGGGGTTAAGTTTGCCATGTGGGTGGCTTGCAGCAG,73.5
CTTGGAGACACCCTTCACGGGCCGCCCGGGTATCCG,47.7
AAAGCGGTAATTTGTCACACAACTTCACATATCTAT,102
ACACCCGTACACCACCATGTGCGTTATTGAAAAACT,101
GTCTTGTCTCATTGTCACGGCACTTTCCCCACTTCA,129

# Series 4 — method: DHFR PCA, deep sequencing; matrix: yeast; with: (+)-ABA 2500 µM; reference: wild-type fitted maximum; reading: higher = stronger binding
# Target: ABI1, truncated, D143A, DHFR fusion (Arabidopsis thaliana)
# Notes: methotrexate growth selection, single substitutions
# Starting sequence: PYL1, truncated, DHFR fusion (Arabidopsis thaliana); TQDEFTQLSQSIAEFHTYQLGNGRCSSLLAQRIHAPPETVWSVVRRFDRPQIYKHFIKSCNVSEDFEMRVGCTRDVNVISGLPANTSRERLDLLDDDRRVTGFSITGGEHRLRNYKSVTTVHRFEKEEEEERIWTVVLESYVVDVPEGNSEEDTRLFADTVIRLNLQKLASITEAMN; partner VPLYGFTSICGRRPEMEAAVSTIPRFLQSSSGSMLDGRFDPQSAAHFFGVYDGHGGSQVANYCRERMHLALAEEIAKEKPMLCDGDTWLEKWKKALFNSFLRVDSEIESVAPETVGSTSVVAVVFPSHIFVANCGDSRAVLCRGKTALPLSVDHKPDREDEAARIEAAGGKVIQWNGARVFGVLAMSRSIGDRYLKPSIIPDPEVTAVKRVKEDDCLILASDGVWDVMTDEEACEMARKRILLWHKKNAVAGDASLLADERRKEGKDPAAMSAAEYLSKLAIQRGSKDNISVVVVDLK
Substitution,relative binding score
Q51W,98.3%
I12S,78.2%
S150L,89.8%
E151D,95.3%
G108F,57.6%
V100M,99.3%
E130S,103%
T101Q,83.6%
V143S,86.1%
R88A,91.5%
L28G,67%
D144R,84%
R99A,94.2%
F5M,105%
R98I,104%
R46Y,87.1%
Y18R,95.1%
E67L,95.9%
T73P,77.5%

# Excerpt of the above (series 4):
Substitution,relative binding score
T101Q,83.6%
V143S,86.1%
R88A,91.5%
L28G,67%
D144R,84%
R99A,94.2%
F5M,105%
R98I,104%
R46Y,87.1%
